# Measurements gathered from unrelated publications.
# Every numbered part comes from another study and shows a few of its results, in no order.

# Block 1
# Target: human cyclin A2
# Read-out: peptide binding
# Method: competitive growth sequencing
# Form: peptide
# Organism: Saccharomyces cerevisiae
# Strain: cyclin A2-Cln2 fusion strain
# Tested at: concentration not given
# Notes: peptide tiling library
# Reference: unfused Cln2 strain
# Reading: direction not given
Molecule,binding score
GSKACARAFGPVDSEQ,-0.514
NESHLDKEHDAVEVAD,-0.159
TAGSAKARAFGEDPPK,-0.449
ATNSSHTDAHEILVSD,0.496
SSPSVRRQLFVTVVKT,1.97
AKRSLGFLPQPVPL,1.24
KPHVSDEEEEEPPFYH,0.198
FEKVKARADLDIDGLQ,-0.0631
IQKKLRFEDTLEFVGF,0.977
ELGMEHCEKFEISETS,0.766
KPKPVKPVTFSTGIKM,-0.504
NRLLKLFTRCLTPLVP,0.392
SPREGHMMDALYAQVK,0.812
DKYDEGLYRFNSLNDL,0.194
EPKTLFLGAGDFQF,0.589
HRRRLLFACSPPPASQ,1.05
DVSERGYVILPNDYFE,-0.282
ARKRLELGNLGNPQ,2.53
LFVPQRKLEVSTEDVH,0.273
YRSRIRRELFIEEIQA,1.85
FEKVKRRLDLDIDGLQ,2.04
GPVKLEFDVSDGAT,0.21
ESSTVSEEDYFSSHRD,0.287
TSNARASANFGGSTGT,-0.121
PPTFLSTGEIHAFLSS,0.113

# Block 2
# Target: Interferon regulatory factor 5, full length, phosphomimetic (IRF5, Homo sapiens, UniProt Q13568-2, residues 1-514, K96S/S451D/S453D/S456D/S462D)
# Method: protein-binding microarray
# Form: double-stranded DNA, one strand shown
# Medium: in vitro
# Tested at: 250 nM
# Notes: 60-bp whole probe
# Added: salmon DNA 0.4 mg/ml
# Reference: random background probes
# Reading: higher = stronger binding
# Shared flanks, not repeated: GCCTAGCAC … GTCTTGATTCGCTTGACGCTGCTG
Strand,log fluorescence [z-score]
CTCTGCTTGCGTCTGGGTGTGTGCTAG,-0.446
TCACCTTTTCACTTTACACTGTGCTAG,1.66
TCAGATTTCTTCCCTGTGACTGTGCTA,0.0811
GACGATTTTAGTCTCGAGACGTGCTAG,0.216
TACGGTCTCGGTTTCGGGACGTGCTAG,3.65
TAAGGTTTCCTACTGCTTTAGTGCTAG,0.446
TCATTTTTGCTTACGATACTGTGCTAG,1.83
TTAGGTATAGACACTGGGTTAGTGCTA,-0.156
TCAGTCTTCAGGTTCTCACTGTGCTAG,0.0351
GACGGACTGGACTATCAGGACGTGCTA,-0.196
TTAGGTCTACTTATCCTTTAGTGCTAG,-0.0952
TCATATTAAAATTTCATACTGTGCTAG,1.28
GACGATTGCGGGTATCGAGACGTGCTA,0.736
TTAGGTCTCGGACTGTGTTAGTGCTAG,-0.226
TTAGGACTGGACACTAGGTTAGTGCTA,-0.309
TTAGGTATCCTACTGCTATAGTGCTAG,-0.151
CAGCCTTTGCCTCATCTTGCAGTGCTA,-0.0886
GACGGTATCCTACTGCTGAAGTGCTAG,-0.049
TTAGATTTCGGGTTTGGATTAGTGCTA,4.7
TTAGGACTGCTTATCATTTAGTGCTAG,0.00396
CTCTGCTTGTGTCTGGGATTGTGCTAG,-0.364
GGGCCTTGCATGTTTTTGACAGTGCTA,-0.664
TTATATTTCAGTCTCGATTAGTGCTAG,3.37
AAGACTCTCTTGTCTGGATGTGTGCTA,-0.558
TTATGTTTCCTTTTCCTTTAGTGCTAG,2.33

# Block 3
# Target: Sal-like protein 4, full length isoform A (SALL4, Homo sapiens, UniProt Q9UJQ4, residues 1-1053)
# UniProt Q9UJQ4, sequence (whole entry, looked up): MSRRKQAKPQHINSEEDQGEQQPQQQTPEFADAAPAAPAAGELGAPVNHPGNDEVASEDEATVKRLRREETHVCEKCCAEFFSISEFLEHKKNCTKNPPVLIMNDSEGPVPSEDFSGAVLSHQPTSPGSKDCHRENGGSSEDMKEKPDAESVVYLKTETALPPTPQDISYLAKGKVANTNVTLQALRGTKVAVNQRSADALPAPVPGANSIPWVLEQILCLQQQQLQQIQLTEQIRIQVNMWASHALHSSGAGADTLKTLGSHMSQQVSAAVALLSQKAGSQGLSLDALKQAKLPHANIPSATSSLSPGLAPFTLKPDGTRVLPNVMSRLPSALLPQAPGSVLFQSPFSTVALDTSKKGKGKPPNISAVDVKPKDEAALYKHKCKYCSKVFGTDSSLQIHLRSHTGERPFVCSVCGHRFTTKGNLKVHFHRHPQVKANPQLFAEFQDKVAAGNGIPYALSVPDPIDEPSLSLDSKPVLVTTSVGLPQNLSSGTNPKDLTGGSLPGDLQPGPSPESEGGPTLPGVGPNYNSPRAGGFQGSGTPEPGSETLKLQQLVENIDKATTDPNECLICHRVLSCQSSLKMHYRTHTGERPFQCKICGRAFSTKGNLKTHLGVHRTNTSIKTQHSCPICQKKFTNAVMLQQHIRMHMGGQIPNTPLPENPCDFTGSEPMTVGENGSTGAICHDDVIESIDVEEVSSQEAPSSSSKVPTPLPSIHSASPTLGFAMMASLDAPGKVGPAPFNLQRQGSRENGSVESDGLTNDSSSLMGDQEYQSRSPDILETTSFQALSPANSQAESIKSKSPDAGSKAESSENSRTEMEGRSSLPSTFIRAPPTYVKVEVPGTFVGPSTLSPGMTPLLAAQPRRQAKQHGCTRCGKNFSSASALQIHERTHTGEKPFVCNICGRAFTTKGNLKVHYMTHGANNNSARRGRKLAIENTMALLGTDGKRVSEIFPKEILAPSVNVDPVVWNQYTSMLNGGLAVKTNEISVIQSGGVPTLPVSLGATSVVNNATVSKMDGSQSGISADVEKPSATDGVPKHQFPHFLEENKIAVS
# Method: universal PBM
# Form: double-stranded DNA, one strand shown
# Medium: in vitro
# Tested at: 600 nM
# Notes: 8-mer, flanks averaged, mean of replicates
# Reading: higher = stronger binding
Strand,E-score
ACTGACGC,-0.135
GAACTCGC,-0.125
ACACGGAA,-0.0205
CGTGAAGA,-0.0758
ATTGGCTC,0.12
ACCTCTTG,-0.248
AGCCACAA,0.0255
AAGCATGC,-0.0113
CTTTATGA,0.338
GAAGGCTA,-0.0435
ATATCAAA,0.386
TTTAAAAA,0.325
TAAGCGGA,-0.0618
GTGGCCCA,-0.326
TACTTAGA,0.117
GTGACTAA,0.154
CGATTTAA,0.203
AAGTTTAG,0.133
ACACTAAT,0.217
ACTTCAAC,0.1
AGAACCAT,0.119
AGACGATA,0.187
ATGGCTAC,0.13
AGTTTCAA,0.123
ACCCTAGG,-0.117

# Block 4
# Target: RNA binding protein fox-1 homolog 2, RRM domain, GST-SBP tag (RBFOX2, Homo sapiens, UniProt O43251-10, residues 100-194)
# Method: RNA Bind-n-Seq
# Form: RNA
# Medium: in vitro
# Tested at: 365 nM
# Notes: natural RNA segment, single round, ends assumed
# Reference: no-protein control
# Reading: higher = stronger binding
# Shared flanks, not repeated: GGGAGUUCUACAGUCCGACGAUC … UGGAAUUCUCGGGUGCCAA
# Construct (chain): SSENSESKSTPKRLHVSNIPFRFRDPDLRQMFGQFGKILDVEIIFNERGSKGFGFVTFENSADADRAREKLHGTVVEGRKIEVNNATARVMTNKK
Strand,RBNS enrichment (R)
UUUAGUUUUUUCAUUUUGUUCUACUUUAUUAAAAAGGUUGGGUGUUCUAGUUCUUGGUUUCUCAUAGAUUUUUAAACUAUCUAAUUAGAGAACACUUUUGAUCCAUCACA,0.521
CAUCCUGGACCAAACAGAUAGGCCAGAACCAGCCUGCAUCCUGGGGCUGCUAUGUGGUUCAGUUAAUCAGUGUGCCAAGAUUCUAAUAAAGUUGACCUUGGGUUCUGUGA,0.588
CAGGAGUAGCUCCAUAGUUGGGCCCAGAUGAAUAUUGUCAUAUAUGACACUGACUUGUGACAUAGGGACAUACCAGCCCCCUCCAGGGCUUUGGCCACUUGAAGUUCCUG,0.182
UCUGAGCAAUGUCCCCAGUGUCCCCUCUGGUCAUGUCCUGUUUCUGCCUCAGGGAUUGUCUCUGUUCCUUCGCUGAGGCCCUCUACUUAGGGCUGAACAUAGGAUUUAUG,0.373
GCUCACCACCCAUCUGCACAAGCUCAGUGCUGACCAGGGACCUGGGCUUCACAUUGGGUCCUGGCCCGAGGAGCCUUGCUUCACUUACUUAGCCCCAGGCCUGGGCAGGG,0.48
CGCCCUGUACUGCACUAGAAUGAUGUAAUACCCCAAGAUGUCUGCUGCAGGUGGUGCAUCAUCGUAUACACUAAGUGACAUUUCUAUCACAAUCAUUUUAUGGAAGAUGU,0.596
AUCUACAUACCUACACCUAUCUAUAUAUAAGCUCAUGGUAGAAAACCAUAGCUAAGUAGCAUCGCAGACUUAAGCGUACAAAGUGAUCUUGUUCACAAGUAAUCUGUUGA,0.322
ACCUGUCUGUAUUGCCGAAUCUGGCCCCAUGUUUUCUGUAUUCCUGUUUGUGGUAGGAGAUAACCAGUCUUGUUUGUUUCUUACAUGGCAUUCCUUUGUUGUCCUGGGAU,0.795
AGGUGCUAUGUUACUUACAAGUAUUAUUAACCUAUUGGCUUCCAUUGUAUAGUAGUUUAGUAACUAUGAAGACUGGUUUGUAAGGAAGGAAACGUUUACUACUAAGGUUA,0.511
CUAACCAAUUUUUACCUUCUGCCUAGAAUGAUGUACACAUAGGAGAGAAAGCUAUCAUGUUCCCGAAGUGCCUUGUUUUCUCUGAUAGAAAUAUAUUUAUAAGGACCUAU,0.629
CAUCUUAAUCCAAGCAAAAAUAAGACAGCUUAAAAAACAACCAAAAAAAAUGUGCCUCUGGUGAAUUAUCCAUCCUUUUUUUAAAAUGUUAAACUGGUCUUUGAGAAAAG,0.438
UCUAUCAUAUGCCACUUUGACGAACUAAGUUGGAGUUUUUGUUUCAAGUCAACUUGUGUGAUAAGUUCUACUGCACCUAUCUUGGGAAGCAGGGAUACCCUCUUCUUUAG,0.3

# Block 5
# Target: RING finger protein unkempt homolog, zinc fingers 1-6, GST-SBP tag (UNK, Homo sapiens, UniProt Q9C0B0, residues 30-357)
# UniProt Q9C0B0, sequence (30-357, looked up): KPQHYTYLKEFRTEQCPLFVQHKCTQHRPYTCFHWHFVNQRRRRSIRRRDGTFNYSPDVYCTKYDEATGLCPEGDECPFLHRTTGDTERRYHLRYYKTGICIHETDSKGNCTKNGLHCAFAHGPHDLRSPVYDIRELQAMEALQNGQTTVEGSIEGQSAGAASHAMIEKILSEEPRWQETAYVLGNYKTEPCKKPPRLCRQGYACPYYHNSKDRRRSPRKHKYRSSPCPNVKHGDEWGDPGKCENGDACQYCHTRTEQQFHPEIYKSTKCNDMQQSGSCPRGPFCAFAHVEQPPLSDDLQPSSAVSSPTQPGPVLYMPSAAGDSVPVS
# Method: RNA Bind-n-Seq
# Form: RNA
# Medium: in vitro
# Tested at: not given
# Notes: RNA with constant flanks, human and mouse sites, ends assumed
# Reference: input RNA pool
# Reading: higher = stronger binding
# Shared flanks, not repeated: GGGAGUUCUACAGUCCGACGAUC … CAACAGAGGAUUGAGCAUCA
Strand,bound/input enrichment [ratio]
CUUGUACCCAACACAAAAAAUGGAAACAUAUACACUCCCCUACUUACCAUUGCCUACAGUGACAUUGACAUCAAAAAUGCUCAUAGCCAGUCUGCGAAGAUUUCCUUCUCAGUGAAGUAU,0.285
CUCCUCUUUCUUUCCUUUCUUUCCUCCCUUUUUCCCGUCUGACCCCAAACGUUAUUGUCCAAACAUGACUGGACAGCAGCUUUUGUUUCUUGACCCUGUAAUAUGACAGUCUGCUAAUAU,0.809
GAGCUGUUAAGUGAGGAAAACAAGGAAAAUGGGAUAAUUAAAACUGUGAAUGAAGACGUAGAAGAGAUGGAAAUUGAUGAACAAACAAAGGUCAUAGUAAAAGACAGACUUUUGGGGAUA,1.09
AACAGCUGCAGGCAGGAUGGUCCGUCCAUCCUGGAGCACAGACCGACAGGCAGAGGAAGCAGGAAGAACUGACAGACGAGGAGAAGGAGAUCAUCAACAGAGUGAUUGCUCGGGCAGAGA,0.253
AAGAAUCUGAGGACCCGACACCUACAAAUUUGCCGUUAUUCCCACUUCUUGAUGAAGGAAUAGCUAGAUGAACAAAGUGUUCUGCAGAGGCCUUUUAUGUGUUUAUGUGGUCCUCAAAGA,0.353
CUGGGUUGGCAAUUGACUGGUCAAGAAACCCAUGAGUUACAAAUGUGUUUGAAACAAAUAAUUAGAAACAUAAAAUUCAAAAUGCCCCAAUAUAGCACUUUUGGGGAUUCAACUUCUACA,1.87
AAAAAGGGACACCCAAGCUAUGCACCACCCAAACGCAUGCGUCGUAAAACUGAAUUCUCUUCCACGGCAAAGGCUAAAGCCCGUUUCUUUGGAAAACGAGAUUUUAGGAGCAGGCUUCUC,0.176

# Block 6
# Target: Histone acetyltransferase KAT6A, winged helix 1, GST fusion (KAT6A, Homo sapiens, UniProt Q92794, residues 1-85)
# Method: protein binding microarray
# Form: double-stranded DNA, one strand shown
# Medium: in vitro
# Tested at: not given
# Notes: 8-mer, flanks averaged, mean of 2 arrays, mostly near background
# Reference: not given
# Reading: higher = stronger binding
# Target sequence (chain): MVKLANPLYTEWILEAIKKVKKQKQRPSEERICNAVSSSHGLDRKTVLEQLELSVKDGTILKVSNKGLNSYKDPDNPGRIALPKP
Strand,E-score
ACGGATCT,0.0309
GACTAAGA,-0.0277
TGTTAGAA,-0.23
ATGGTGCC,0.0161
CCGGATTA,0.0377
CCTCATTC,-0.185
ATTTCATA,-0.274
ACGCAGAC,0.00517
TATAAAAA,-0.141
AGGTAGTA,0.0364
ACTTCCTC,-0.166
CGTCGCCA,0.186
ATTGTAGC,0.0533
CACACCAG,-0.221
CGGGGGAG,0.229
ACGTACCA,-0.179
CACCGCCC,0.173
AGTTTCAC,-0.0851

# For quick reference, copied from above (block 2):
Strand,log fluorescence [z-score]
GACGATTTTAGTCTCGAGACGTGCTAG,0.216
TACGGTCTCGGTTTCGGGACGTGCTAG,3.65
TAAGGTTTCCTACTGCTTTAGTGCTAG,0.446
TCATTTTTGCTTACGATACTGTGCTAG,1.83
TTAGGTATAGACACTGGGTTAGTGCTA,-0.156
TCAGTCTTCAGGTTCTCACTGTGCTAG,0.0351
GACGGACTGGACTATCAGGACGTGCTA,-0.196
